Experimental data collected from several papers.
A part holds a random share of what one study measured.
Chain of UniProt O24410 (whole entry, looked up): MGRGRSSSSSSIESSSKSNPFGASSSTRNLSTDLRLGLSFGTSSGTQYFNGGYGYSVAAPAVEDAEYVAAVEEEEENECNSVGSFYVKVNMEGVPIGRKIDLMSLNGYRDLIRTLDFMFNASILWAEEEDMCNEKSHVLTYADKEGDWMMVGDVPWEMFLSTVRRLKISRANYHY
Chain of UniProt Q9C5X0 (whole entry, looked up): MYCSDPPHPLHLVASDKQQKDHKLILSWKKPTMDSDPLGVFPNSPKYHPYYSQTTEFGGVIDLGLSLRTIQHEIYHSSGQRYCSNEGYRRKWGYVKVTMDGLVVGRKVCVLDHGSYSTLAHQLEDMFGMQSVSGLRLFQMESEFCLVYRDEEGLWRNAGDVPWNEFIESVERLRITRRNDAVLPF
Chain of UniProt O24409 (whole entry, looked up): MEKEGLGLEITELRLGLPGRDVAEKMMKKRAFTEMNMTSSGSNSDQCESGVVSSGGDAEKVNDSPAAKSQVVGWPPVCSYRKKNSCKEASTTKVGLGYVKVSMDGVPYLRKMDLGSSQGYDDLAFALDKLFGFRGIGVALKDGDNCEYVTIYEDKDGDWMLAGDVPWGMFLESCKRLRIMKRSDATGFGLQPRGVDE
Chain of UniProt Q9FGV1 (whole entry, looked up): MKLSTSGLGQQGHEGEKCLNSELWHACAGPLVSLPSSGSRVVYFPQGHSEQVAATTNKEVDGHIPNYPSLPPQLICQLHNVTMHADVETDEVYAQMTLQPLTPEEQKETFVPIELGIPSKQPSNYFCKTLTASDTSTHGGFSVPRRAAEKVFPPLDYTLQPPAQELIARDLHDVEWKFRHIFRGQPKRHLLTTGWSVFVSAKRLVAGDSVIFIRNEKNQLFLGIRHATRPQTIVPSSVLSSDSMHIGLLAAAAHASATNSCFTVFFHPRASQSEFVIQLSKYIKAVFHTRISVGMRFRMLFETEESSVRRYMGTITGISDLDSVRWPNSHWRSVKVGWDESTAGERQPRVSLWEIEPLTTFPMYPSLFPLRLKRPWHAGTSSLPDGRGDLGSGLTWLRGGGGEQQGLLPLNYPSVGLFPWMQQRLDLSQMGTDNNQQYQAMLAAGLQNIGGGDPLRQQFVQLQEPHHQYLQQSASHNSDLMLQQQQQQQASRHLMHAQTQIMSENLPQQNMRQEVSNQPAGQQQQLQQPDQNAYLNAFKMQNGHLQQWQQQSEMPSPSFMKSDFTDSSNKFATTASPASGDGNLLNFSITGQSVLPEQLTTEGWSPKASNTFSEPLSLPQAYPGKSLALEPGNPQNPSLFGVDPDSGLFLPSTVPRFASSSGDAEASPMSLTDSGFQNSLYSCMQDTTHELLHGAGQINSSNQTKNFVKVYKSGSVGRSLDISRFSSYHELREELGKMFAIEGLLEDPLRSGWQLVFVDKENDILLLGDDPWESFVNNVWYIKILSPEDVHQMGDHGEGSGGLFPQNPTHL

Series 1 — method: RNAcompete; form: RNA; matrix: in vitro; tested at: 20 nM; notes: 7-mer, probes averaged, single round; relative to: mean of 7-mers; direction: higher = stronger binding
Target: PABPC1L2, full length, GST fusion (mouse, UniProt A0ABA7IW68)
Construct (chain): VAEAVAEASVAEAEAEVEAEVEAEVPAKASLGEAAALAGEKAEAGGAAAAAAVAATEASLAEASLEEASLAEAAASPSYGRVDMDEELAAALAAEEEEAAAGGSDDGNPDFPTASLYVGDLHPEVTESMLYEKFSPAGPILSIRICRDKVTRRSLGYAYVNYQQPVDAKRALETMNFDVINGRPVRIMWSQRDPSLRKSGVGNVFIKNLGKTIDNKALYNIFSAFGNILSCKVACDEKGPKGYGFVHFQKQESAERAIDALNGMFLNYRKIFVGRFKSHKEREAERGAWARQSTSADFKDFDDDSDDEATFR
| Strand | 7-mer Z-score |
| --- | --- |
| UUGAUUG | -0.139 |
| CAUCAAA | 0.555 |
| CUCUACC | -0.306 |
| AGGCACC | -0.0047 |
| CGAUGAC | -0.148 |
| UUGUCAG | -0.267 |
| UAAGCGC | -0.179 |
| CUCAAGG | -0.104 |

Series 2 — method: RNA Bind-n-Seq; form: RNA; matrix: in vitro; tested at: 15 pmol; notes: 4-mer, random 30-nt RNA, single round; with: 3 µM RocA, 2 mM AMP-PNP; relative to: mean of 4-mers; direction: higher = stronger binding
Target: Eukaryotic initiation factor 4A-I (EIF4A1, Homo sapiens, UniProt P60842, residues 1-406, full length assumed)
Chain of UniProt P60842 (whole entry, looked up): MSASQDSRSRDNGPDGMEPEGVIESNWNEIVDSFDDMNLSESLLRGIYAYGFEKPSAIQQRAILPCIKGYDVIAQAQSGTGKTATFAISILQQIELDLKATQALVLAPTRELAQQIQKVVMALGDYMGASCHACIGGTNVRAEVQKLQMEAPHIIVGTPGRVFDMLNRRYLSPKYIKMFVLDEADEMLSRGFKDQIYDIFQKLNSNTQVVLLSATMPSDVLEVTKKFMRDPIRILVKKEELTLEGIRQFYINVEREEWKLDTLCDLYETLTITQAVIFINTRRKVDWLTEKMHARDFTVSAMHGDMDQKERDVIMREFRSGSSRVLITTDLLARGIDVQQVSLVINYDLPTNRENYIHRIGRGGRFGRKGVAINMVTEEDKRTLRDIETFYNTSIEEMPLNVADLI
| Strand | 4-mer enrichment Z-score |
| --- | --- |
| UUUA | 0.0885 |
| CGCC | -0.77 |
| CAAA | 0.134 |
| CCGU | -0.712 |
| UUAC | -1.04 |
| AAGG | 1.62 |
| CGGG | 1.01 |
| AGUU | 0.581 |

Series 3 — Sequence: B1 (IAA14); method: two-hybrid; direction: higher = firmer interaction
B1: IAA14 (Arabidopsis thaliana, UniProt Q38832); chain MNLKETELCLGLPGGTETVESPAKSGVGNKRGFSETVDLKLNLQSNKQGHVDLNTNGAPKEKTFLKDPSKPPAKAQVVGWPPVRNYRKNVMANQKSGEAEEAMSSGGGTVAFVKVSMDGAPYLRKVDLKMYTSYKDLSDALAKMFSSFTMGSYGAQGMIDFMNESKVMDLLNSSEYVPSYEDKDGDWMLVGDVPWPMFVESCKRLRIMKGSEAIGLAPRAMEKFKNRS
| partner | notes | relative to | positive tests |
| --- | --- | --- | --- |
| IAA34 (Arabidopsis thaliana, UniProt Q9C5X0) | – | out of 4 tests | 3 |
| IAA17 (Arabidopsis thaliana, UniProt P93830) | – | out of 4 tests | 2 |
| IAA19 (Arabidopsis thaliana, UniProt O24409) | – | out of 4 tests | 2 |
| IAA20 (Arabidopsis thaliana, UniProt O24410) | weak activation fusion | out of 4 tests | 1 |
| ARF8 699-811 (Arabidopsis thaliana, UniProt Q9FGV1) | – | out of 2 tests | 1 |

Series 4 — read-out: enzyme activity; action: inhibitor; tested at: 0.5 µM; relative to: control
Target: Tyrosine-protein kinase receptor UFO (AXL, Homo sapiens, UniProt P30530)
Chain of UniProt P30530 (whole entry, looked up): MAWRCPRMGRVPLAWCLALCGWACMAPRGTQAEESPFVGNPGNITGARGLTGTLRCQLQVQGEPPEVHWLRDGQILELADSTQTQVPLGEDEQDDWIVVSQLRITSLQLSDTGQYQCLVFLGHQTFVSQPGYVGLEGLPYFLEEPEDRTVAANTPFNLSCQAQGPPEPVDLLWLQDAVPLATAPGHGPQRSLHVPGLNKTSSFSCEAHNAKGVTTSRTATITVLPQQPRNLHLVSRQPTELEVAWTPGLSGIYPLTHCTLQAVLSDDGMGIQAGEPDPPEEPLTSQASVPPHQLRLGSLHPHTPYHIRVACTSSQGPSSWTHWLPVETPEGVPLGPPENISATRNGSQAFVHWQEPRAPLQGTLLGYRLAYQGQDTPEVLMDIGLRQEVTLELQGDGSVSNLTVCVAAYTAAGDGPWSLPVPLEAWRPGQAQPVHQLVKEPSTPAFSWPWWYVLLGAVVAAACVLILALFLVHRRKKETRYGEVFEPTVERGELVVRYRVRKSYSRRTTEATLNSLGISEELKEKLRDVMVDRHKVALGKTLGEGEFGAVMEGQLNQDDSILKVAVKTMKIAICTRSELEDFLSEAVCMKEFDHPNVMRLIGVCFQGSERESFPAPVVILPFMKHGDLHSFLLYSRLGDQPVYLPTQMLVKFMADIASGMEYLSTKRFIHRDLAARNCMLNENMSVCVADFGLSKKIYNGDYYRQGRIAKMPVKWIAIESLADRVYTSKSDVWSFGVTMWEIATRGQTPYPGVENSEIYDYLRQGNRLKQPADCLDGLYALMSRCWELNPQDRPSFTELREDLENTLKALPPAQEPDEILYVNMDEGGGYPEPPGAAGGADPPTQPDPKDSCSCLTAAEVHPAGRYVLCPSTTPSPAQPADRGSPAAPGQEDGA
| SMILES | remaining activity [%] |
| --- | --- |
| C[C@@H]1CCN(C(=O)CC#N)C[C@@H]1N(C)c1ncnc2[nH]ccc12 | 97.7 |
| COc1cc2ncnc(Nc3ccc(O)c(Br)c3)c2cc1OC | 89.4 |
| O=C(Nc1cccc(Nc2nccc(Nc3cccc(C(F)(F)F)c3)n2)c1)C1CC1 | 104 |
| N#C/C(=C\c1ccc(O)c(O)c1)C(=O)NCc1ccccc1 | 95.1 |
| c1ccc(-c2[nH]ncc2-c2ccnc3ccccc23)nc1 | 101 |
| O=C(NC(NC(=S)Nc1ccc(F)c([N+](=O)[O-])c1)C(Cl)(Cl)Cl)C(c1ccccc1)c1ccccc1 (stereo not shown) | 112 |
| Cn1nc2c3c(cccc31)C(=O)c1ccccc1-2 | 104 |
| CCOc1nc(NC(=O)Cc2cc(OC)ccc2OC)cc(N)c1C#N | 105 |
| CCN(CC)C(=O)c1ccc(Nc2nc(OCC3CCCCC3)c3[nH]cnc3n2)cc1 | 80.8 |
| O=C1c2ccccc2-c2n[nH]c3cccc1c23 | 85.8 |
| Cc1nc2cc3nc(-c4cccs4)cnc3cc2n1C | 109 |
| CCN(CC)CCNC(=O)c1c(C)[nH]c(/C=C2\C(=O)Nc3ccc(F)cc32)c1C | 27.4 |
| COc1cc2ncnc(Nc3cccc(Cl)c3)c2cc1OC | 95.3 |
| COc1cc2c(cc1OC)-c1[nH]nc(Nc3cccc(F)c3)c1C2 | 96.1 |
| c1ccc(-c2cnc(Nc3ccc(OCCN4CCCC4)cc3)s2)cc1 | 97.1 |
| Ic1cccc(CSc2nnc(-c3ccncc3)o2)c1 | 99.2 |
| CN([C@@H](Cc1ccc(OS(=O)(=O)c2cccc3cnccc23)cc1)C(=O)N1CCN(c2ccccc2)CC1)S(=O)(=O)c1cccc2cnccc12 | 103 |
| N#Cc1c(NC(=O)c2cccc3ccccc23)sc2c1CCCC2 | 106 |
| CN(C)C[C@H]1CCn2c(c(C3=C(c4cn(C)c5ccccc45)C(=O)NC3=O)c3ccccc32)C1 | 99.3 |
| Cc1cn(-c2cc(NC(=O)c3ccc(C)c(Nc4nccc(-c5cccnc5)n4)c3)cc(C(F)(F)F)c2)cn1 | 64.8 |
| Cc1cc2ncc(-c3ccccc3)nc2cc1C | 100 |

Series 5 — read-out: binding; method: radioligand binding; tested at: 10 µM
Target: Beta-2 adrenergic receptor (ADRB2, Homo sapiens, UniProt P07550)
| SMILES | inhibition |
| --- | --- |
| CN1CCN(C(=O)C(C)(C)c2ccc(C(=O)Nc3cn4cc(-c5ccncc5)ccc4n3)cc2)CC1 | 16.6% |
| COc1nc2ccc([C@@](O)(c3ccccc3)C3CCN(C(C)=O)CC3)cc2c(Cl)c1Cc1ccc(-n2cccn2)cc1 | 15.6% |
| COc1cc(-c2cn(C3CCc4ccccc4N(CC(F)(F)F)C3=O)nn2)ccc1-n1ccc(C)n1 (stereo not shown) | -13.7% |
| O[C@]1(C(F)(F)F)CCCC[C@H]1Nc1ccc(F)cc1 | 7.94% |

For quick reference, copied from above (series 2):
| Strand | 4-mer enrichment Z-score |
| --- | --- |
| UUAC | -1.04 |
| AAGG | 1.62 |
| CGGG | 1.01 |
| AGUU | 0.581 |
